Assay results gathered from unrelated publications.
Each numbered part is a random draw from the data of one study; scales do not carry over between parts. Values joined by “and” are separate records of one study, mostly repeats; a detail may differ.
UniProt Q16512, sequence (whole entry, looked up): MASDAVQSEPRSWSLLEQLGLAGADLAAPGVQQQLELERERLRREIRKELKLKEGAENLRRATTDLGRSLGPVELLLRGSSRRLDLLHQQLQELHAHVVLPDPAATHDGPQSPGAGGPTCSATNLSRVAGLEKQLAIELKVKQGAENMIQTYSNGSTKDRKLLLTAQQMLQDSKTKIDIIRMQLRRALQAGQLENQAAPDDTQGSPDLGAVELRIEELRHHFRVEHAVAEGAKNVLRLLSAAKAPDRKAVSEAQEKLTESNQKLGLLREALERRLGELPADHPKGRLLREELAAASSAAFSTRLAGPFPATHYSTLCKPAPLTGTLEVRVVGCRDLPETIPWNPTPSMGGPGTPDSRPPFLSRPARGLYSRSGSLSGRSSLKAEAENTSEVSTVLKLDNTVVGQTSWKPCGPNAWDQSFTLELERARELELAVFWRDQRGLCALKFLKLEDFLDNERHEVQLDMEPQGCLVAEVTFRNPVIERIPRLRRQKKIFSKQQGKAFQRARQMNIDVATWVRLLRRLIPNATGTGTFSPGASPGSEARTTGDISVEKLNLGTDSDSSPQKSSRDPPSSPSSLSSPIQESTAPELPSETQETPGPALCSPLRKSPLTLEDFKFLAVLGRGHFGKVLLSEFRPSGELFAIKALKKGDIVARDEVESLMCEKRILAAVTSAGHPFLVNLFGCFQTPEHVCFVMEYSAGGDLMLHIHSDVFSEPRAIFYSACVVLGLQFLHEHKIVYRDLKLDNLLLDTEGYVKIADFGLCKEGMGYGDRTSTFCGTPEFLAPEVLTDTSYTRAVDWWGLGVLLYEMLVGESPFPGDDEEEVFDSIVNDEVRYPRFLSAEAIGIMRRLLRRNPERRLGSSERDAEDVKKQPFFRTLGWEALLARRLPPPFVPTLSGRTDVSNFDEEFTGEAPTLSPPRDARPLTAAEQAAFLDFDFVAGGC
UniProt Q9UKT9, sequence (whole entry, looked up): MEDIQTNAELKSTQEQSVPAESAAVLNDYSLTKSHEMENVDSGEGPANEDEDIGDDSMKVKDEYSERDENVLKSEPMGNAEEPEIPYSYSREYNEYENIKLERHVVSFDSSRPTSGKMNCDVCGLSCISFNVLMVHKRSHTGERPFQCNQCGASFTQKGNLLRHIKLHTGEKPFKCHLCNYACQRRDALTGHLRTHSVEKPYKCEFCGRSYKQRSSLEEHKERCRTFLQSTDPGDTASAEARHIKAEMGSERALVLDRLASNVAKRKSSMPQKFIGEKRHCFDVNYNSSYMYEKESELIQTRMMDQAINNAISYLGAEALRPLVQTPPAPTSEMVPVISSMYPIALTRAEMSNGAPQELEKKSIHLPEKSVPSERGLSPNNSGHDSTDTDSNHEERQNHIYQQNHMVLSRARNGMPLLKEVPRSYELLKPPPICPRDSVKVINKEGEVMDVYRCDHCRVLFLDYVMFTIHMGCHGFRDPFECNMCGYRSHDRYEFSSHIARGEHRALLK
UniProt Q9UKS7, sequence (whole entry, looked up): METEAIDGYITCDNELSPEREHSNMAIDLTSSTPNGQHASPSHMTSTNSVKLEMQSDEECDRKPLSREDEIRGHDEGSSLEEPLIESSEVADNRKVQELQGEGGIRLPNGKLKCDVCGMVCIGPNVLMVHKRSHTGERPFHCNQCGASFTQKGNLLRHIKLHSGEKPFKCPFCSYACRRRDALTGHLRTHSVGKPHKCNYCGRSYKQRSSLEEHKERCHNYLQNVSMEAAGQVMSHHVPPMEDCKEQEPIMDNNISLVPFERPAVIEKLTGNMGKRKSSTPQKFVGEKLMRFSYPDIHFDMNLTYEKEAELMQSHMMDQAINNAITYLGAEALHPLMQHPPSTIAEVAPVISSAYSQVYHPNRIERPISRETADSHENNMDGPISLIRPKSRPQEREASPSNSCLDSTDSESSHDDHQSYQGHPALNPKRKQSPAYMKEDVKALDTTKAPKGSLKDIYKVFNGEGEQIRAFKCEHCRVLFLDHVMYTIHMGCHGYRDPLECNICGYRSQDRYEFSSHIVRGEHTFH
UniProt Q9H3Y6, sequence (whole entry, looked up): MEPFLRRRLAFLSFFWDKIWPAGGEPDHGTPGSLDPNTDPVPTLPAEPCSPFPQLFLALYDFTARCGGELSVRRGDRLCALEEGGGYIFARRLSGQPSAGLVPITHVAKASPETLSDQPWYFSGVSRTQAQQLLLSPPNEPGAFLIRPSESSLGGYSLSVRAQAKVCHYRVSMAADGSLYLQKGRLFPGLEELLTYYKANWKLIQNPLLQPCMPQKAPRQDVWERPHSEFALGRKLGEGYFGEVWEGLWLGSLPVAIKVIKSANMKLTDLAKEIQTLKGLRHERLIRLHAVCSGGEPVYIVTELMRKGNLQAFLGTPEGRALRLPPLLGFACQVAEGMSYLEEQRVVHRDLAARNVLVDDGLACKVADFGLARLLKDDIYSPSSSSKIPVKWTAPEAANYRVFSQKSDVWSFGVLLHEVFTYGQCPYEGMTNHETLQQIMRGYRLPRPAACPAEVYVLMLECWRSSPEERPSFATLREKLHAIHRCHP
UniProt Q9H2S9, sequence (whole entry, looked up): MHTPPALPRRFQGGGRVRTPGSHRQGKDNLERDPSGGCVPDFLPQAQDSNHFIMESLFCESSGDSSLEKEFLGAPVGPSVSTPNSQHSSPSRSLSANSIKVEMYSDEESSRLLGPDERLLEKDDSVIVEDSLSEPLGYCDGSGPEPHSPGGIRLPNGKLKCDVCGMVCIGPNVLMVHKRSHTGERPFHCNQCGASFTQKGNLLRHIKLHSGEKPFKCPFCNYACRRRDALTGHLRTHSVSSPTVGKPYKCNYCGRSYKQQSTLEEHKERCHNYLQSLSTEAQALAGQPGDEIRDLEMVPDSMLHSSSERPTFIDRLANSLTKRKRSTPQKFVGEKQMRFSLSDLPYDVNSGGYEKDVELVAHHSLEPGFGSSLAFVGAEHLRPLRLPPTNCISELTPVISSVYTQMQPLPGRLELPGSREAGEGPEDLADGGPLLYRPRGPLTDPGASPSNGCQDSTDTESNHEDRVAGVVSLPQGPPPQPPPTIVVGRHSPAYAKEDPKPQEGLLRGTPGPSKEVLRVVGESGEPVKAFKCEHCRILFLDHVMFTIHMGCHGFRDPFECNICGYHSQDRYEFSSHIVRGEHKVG
UniProt Q96SW2, sequence (whole entry, looked up): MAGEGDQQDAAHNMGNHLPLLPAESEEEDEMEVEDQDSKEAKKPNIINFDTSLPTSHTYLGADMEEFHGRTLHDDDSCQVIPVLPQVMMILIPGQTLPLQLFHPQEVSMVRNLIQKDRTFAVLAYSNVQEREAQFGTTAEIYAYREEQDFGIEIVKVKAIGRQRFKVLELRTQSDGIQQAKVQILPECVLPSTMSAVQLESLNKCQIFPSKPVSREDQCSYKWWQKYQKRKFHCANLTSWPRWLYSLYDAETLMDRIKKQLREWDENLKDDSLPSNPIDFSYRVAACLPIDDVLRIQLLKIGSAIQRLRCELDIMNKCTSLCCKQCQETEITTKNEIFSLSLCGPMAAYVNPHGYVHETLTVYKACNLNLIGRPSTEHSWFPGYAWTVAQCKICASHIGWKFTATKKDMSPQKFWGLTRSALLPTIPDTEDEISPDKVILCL

Block 1
SMILES: Cc1noc([C@H]2C[C@@H](c3ccc(C(F)(F)F)cc3)CN(C(=O)N3CCS(=O)(=O)C3)C2)n1
Observed: cell-free assay
Method: competition with immobilised ligand
Tested at: 1 µM
| target | remaining binding [%] |
| --- | --- |
| Serine/threonine-protein kinase N1 (PKN1, Homo sapiens, UniProt Q16512) | 100 |
| Cytoplasmic tyrosine-protein kinase BMX (BMX, Homo sapiens, UniProt P51813) | 100 |
| Phosphatidylinositol 4,5-bisphosphate 3-kinase catalytic subunit alpha isoform (PIK3CA, Homo sapiens, UniProt P42336, H1047Y) | 95 |
| Tyrosine-protein kinase Srms (SRMS, Homo sapiens, UniProt Q9H3Y6) | 89 |
| RAC-alpha serine/threonine-protein kinase (AKT1, Homo sapiens, UniProt P31749) | 90 |
| Transient receptor potential cation channel subfamily M member 6 (TRPM6, Homo sapiens, UniProt Q9BX84) | 100 |
| Calcium/calmodulin-dependent protein kinase type 1D (CAMK1D, Homo sapiens, UniProt Q8IU85) | 100 |

Block 2
SMILES: O=C1CCC(N2Cc3cc(C4CCN(Cc5ccccc5)CC4)ccc3C2=O)C(=O)N1 (stereo not drawn)
Mode: degrader
CSNK1A1: Casein kinase I isoform alpha (CSNK1A1, Homo sapiens, UniProt P48729)
UniProt P48729, sequence (whole entry, looked up): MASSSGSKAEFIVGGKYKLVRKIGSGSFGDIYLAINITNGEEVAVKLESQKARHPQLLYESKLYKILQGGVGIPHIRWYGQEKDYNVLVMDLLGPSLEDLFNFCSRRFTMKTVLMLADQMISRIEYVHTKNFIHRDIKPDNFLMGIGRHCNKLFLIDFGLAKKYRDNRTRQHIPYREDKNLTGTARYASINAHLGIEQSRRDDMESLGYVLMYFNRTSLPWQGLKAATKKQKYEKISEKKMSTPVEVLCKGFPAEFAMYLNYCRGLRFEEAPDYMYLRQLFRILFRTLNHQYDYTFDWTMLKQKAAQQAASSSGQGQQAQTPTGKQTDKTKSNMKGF
SALL4: Sal-like protein 4 (SALL4, Homo sapiens, UniProt Q9UJQ4)
UniProt Q9UJQ4, sequence (whole entry, looked up): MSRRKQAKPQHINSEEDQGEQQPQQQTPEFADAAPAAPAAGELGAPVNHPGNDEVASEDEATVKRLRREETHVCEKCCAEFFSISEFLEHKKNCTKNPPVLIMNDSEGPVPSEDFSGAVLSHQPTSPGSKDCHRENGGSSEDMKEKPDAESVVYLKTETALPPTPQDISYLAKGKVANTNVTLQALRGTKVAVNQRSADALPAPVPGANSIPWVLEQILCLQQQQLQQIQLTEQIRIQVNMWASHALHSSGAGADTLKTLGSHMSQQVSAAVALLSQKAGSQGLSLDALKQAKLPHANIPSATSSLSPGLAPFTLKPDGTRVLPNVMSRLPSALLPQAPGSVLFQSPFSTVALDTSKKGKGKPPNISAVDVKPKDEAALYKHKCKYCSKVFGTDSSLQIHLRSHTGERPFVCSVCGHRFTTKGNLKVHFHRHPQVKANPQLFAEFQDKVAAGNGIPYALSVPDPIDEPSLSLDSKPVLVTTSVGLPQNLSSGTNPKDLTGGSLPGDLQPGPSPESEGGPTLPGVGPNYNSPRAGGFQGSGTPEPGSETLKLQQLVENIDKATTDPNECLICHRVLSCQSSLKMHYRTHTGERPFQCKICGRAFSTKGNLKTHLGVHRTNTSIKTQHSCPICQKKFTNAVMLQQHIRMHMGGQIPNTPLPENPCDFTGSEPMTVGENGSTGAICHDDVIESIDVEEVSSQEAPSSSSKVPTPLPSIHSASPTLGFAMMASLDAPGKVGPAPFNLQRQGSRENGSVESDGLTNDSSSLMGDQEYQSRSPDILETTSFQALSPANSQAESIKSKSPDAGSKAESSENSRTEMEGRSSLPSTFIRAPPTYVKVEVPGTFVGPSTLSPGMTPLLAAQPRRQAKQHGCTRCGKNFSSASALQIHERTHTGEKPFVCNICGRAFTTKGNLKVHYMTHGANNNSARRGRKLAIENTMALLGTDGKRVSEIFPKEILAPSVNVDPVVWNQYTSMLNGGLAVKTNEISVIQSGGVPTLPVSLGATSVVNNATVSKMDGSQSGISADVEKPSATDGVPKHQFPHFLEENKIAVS
| target | method | cell line | tested at | time | remaining protein |
| --- | --- | --- | --- | --- | --- |
| CSNK1A1 | HiBiT | HEK293 HiBiT-CK1α | 4.572 nM | – | 98.6% and 86.7% |
| DNA-binding protein Ikaros (Homo sapiens, UniProt Q13422) | HiBiT | HEK293 | 0.01372 µM | 6 h | 94.7% |
| SALL4 | HiBiT | HEK293 | 0.004572 µM | – | 65.2% and 61.8% |
| CRBN/Zinc finger protein Helios (Homo sapiens, UniProt Q96SW2+Q9UKS7) | flow cytometry | primary human regulatory T cells | 0.03704 µM | 6 h | 71.1% |
| Zinc finger protein Aiolos (Homo sapiens, UniProt Q9UKT9) | HiBiT | HEK293 | 0.1235 µM | – | 88.2% and 83.7% |
| CSNK1A1 | HiBiT | HEK293 | 0.1235 µM | 6 h | 91.6% |
| SALL4 | HiBiT | HEK293 | 0.01372 µM | 6 h | 59.7% |
| Zinc finger protein Eos (IKZF4, Homo sapiens, UniProt Q9H2S9) | HiBiT | HEK293 | 0.001372 µM | 3 h | 113% |

Block 3
Target: Serine/threonine-protein kinase N1 (PKN1, Homo sapiens, UniProt Q16512)
Observed: enzyme activity
Mode: inhibitor
Tested at: 0.5 µM
Reference: control
| Structure (SMILES) | remaining activity [%] |
| --- | --- |
| O=c1c2ccccc2[nH]c(=S)n1CCN1CCC(=C(c2ccc(F)cc2)c2ccc(F)cc2)CC1 | 103 |
| CNC(=O)c1cc(Oc2ccc(NC(=O)Nc3ccc(Cl)c(C(F)(F)F)c3)cc2)ccn1 | 106 |
| N#CC(C#N)=C(N)/C(C#N)=C/c1ccc(O)cc1 | 89 |
| Cc1nc(-c2ccccc2)c(-c2ccncc2)o1 | 101 |
| COc1ccc(CNC(=O)Nc2ncc([N+](=O)[O-])s2)cc1 | 94.3 |
| Nc1[nH]nc2nc3ccccc3nc12 | 92 |
| CO[C@H]1C[C@@H]2CC[C@@H](C)[C@@](O)(O2)C(=O)C(=O)N2CCCC[C@H]2C(=O)O[C@H]([C@H](C)C[C@@H]2CC[C@@H](O)[C@H](OC)C2)CC(=O)[C@H](C)/C=C(\C)[C@@H](O)[C@@H](OC)C(=O)[C@H](C)C[C@H](C)/C=C/C=C/C=C/1C | 96.2 |
| COc1ccc(C(=O)Nc2sc3c(c2C(N)=O)CCCC3)cc1OC | 96.3 |
| CN(C)c1ccc(C=C2C(=O)Nc3ccccc32)cc1 | 98.4 |
| COc1cc2ncnc(Nc3ccc(Oc4ccccc4)cc3)c2cc1OC | 97.3 |

Block 4
SMILES: CC(C)C(=O)N1CCN(c2nc(OC[C@@H]3CCCN3C)nc3c2CCN(c2cccc4cccc(Cl)c24)C3)C[C@@H]1CC#N
Cell line: HEK293
Method: CellTiter-Glo
Reference: vehicle
| tested at | viability |
| --- | --- |
| 10 µM | 31.7% and 30.5% and 27.3% |
| 40 µM | 16% and 12% and 15.4% |
| 156 nM | 96.9% and 100% and 98.7% |
| 1.25 µM | 98.8% and 97.2% and 92.2% |
| 20 µM | 22.4% and 19.9% and 21.4% |

Some of these lines once more (block 2):
| target | method | cell line | tested at | time | remaining protein |
| --- | --- | --- | --- | --- | --- |
| SALL4 | HiBiT | HEK293 | 0.004572 µM | – | 65.2% and 61.8% |
| CRBN/Zinc finger protein Helios (Homo sapiens, UniProt Q96SW2+Q9UKS7) | flow cytometry | primary human regulatory T cells | 0.03704 µM | 6 h | 71.1% |
| Zinc finger protein Aiolos (Homo sapiens, UniProt Q9UKT9) | HiBiT | HEK293 | 0.1235 µM | – | 88.2% and 83.7% |
